# Results from different studies.
# Protocols differ between the studies behind these lines. Numbers after ± are the reported error.
# polA D424A: polA fragment D424A (Escherichia coli)
# B1: FNO G29S (Thermobifida fusca, UniProt Q47RA9); chain MIMIMASKSSPHDLPDVSGLSIAVLGGTSDQGRGLARRFAMAGHEVILGSRSAERAQAVAAELGEGLPVRGMDNAGAAEAGDVVIVAVPWDGHRALLESLKDVLAGKIVVDCVNPLGFDKRGAYALPVEEGSAAEQAAAILPDSRVVAAFHHVSAVLLLDPEVEKVDLDVLVLGDDREATDVVRALAARIPGVRGVYGGRLRNAHQVEAFTANLISINRRYKAHAGIRITDI
# B2: enzyme (Streptomyces venezuelae, UniProt Q9ZGI2); chain SGADTGAGAGMFRALFRQAVEDDRYGEFLDVLAEASAFRPQFASPEACSERLDPVLLAGGPTDRAEGRAVLVGCTGTAANGGPHEFLRLSTSFQEERDFLAVPLPGYGTGTGTGTALLPADLDTALDAQARAILRAAGDAPVVLLGHSGGALLAHELAFRLERAHGAPPAGIVLVDPYPPGHQEPIEVWSRQLGEGLFAGELEPMSDARLLAMGRYARFLAGPRPGRSSAPVLLVRASEPLGDWQEERGDWRAHWDLPHTVADVPGDHFTMMRDHAPAVAEAVLSWLDAIEGIEGAGK
# B3: genB3 Q310N (Micromonospora echinospora, UniProt Q2MG50); chain MDSANLTNRGLVERARRVTAAENYDIGTRFSAMIQSGEGAWLTDVEGNRYVDLTASSGTIILGHRNQAVTEAITRQIRDFGTAFASTLSVPRVELAERLCERYECAEKVVFHKTGSEGTAMAARLARAATGRELILSCGYHGWHEWQLAGETFGYQQTTGVVGFGYNEKALAKMLEAFGNEVAGVLISPELLYFDVEFYQRMYALCARYDVPFMMDEVYTGFRAGPKGVHGLGVPADVVVVSKGLANGHSLAAVMGRRDIIDAYDVSGINGTYTREVPPMAAAMAVLDVLDTPGVYEHAEAMGRRLADGMREILTGEGIPNWVGGPALMFDTVLPNDDLGWEIYKTAHDFGVYFEDSGTQLVTTAFDEAAVDHALTAFRKATRQVIADRPDIAPTSGGELTEERKLDFAEEAFGGLLRDDERTNALIDETIEKVVNRDRSIKPVLIPAQN
# B4: enzyme (Astragalus mongholicus, UniProt A0A977WMR2); chain MDGKGEDKPLKLYFIPYLAPGHMIPLCAMATLFASKGHHVTIITTPFNAKTLQKSIPSSQSKQHLHLHTVPFPSQEVSLPDGIENLSATTNLDNLVKVYQATTLLRPPIENFVLQNPPDCIVADFLFPWVDELANNLKIPRFAFNGFSLFAICAIESVKKHSLYSSTSFSIPDLPHTITMNASPPKQMSEMLQPLLDTELKSNGLIVNNFVELDGEEYIEHYEKTTGHKAWHLGPASLIRRSIEEKVESGQESAVSVHECLSWLNSKRVNSVVYICFGSLCHFPDKQLYEIACGIEASGHEFIWVVPEKKGKEDESEEEKEKWLPKGFQFQNQEKGLIIRGWAPQVLILSHPAVGAFLTHCGWNSTVEAVSFGIPMITWPVHGEQFYNEKLITQVRGIGVEVGAAEWTAVGFGEREKIVSRDSIQKAVERLMDGGDEAENIRRLAREFGDKAKLAVQEGGSSHKNLTTLIDDLKRLRDCKLS
# B5: PPIP5K2 (Homo sapiens, UniProt O43314); chain MSEAPRFFVGPEDTEINPGNYRHFFHHADEDDEEEDDSPPERQIVVGICSMAKKSKSKPMKEILERISLFKYITVVVFEEEVILNEPVENWPLCDCLISFHSKGFPLDKAVAYAKLRNPFVINDLNMQYLIQDRREVYSILQAEGILLPRYAILNRDPNNPKECNLIEGEDHVEVNGEVFQKPFVEKPVSAEDHNVYIYYPTSAGGGSQRLFRKIGSRSSVYSPESNVRKTGSYIYEEFMPTDGTDVKVYTVGPDYAHAEARKSPALDGKVERDSEGKEVRYPVILNAREKLIAWKVCLAFKQTVCGFDLLRANGQSYVCDVNGFSFVKNSMKYYDDCAKILGNIVMRELAPQFHIPWSIPLEAED
# B6: protein (Thermotoga neapolitana, UniProt B9K712); chain MKMLYDLAKKRKTVRRFKKEKPPLEDLIYSLKVANEAPSGMNAQPWRFLIVEDEKLKGQIRRVCERSEKTFYENVRGRLKEWLDEKRFTWRKPFLKEAPYLLLVFSEKSAPYSRESVWLAVGYLLLALEEKGLGSVPYTPPDFREVEKLVNTPSELRLEVILPVGYPDDPKPKYPRNEVIVRYNTF
# Sequence of UniProt Q94JM3 (whole entry, looked up): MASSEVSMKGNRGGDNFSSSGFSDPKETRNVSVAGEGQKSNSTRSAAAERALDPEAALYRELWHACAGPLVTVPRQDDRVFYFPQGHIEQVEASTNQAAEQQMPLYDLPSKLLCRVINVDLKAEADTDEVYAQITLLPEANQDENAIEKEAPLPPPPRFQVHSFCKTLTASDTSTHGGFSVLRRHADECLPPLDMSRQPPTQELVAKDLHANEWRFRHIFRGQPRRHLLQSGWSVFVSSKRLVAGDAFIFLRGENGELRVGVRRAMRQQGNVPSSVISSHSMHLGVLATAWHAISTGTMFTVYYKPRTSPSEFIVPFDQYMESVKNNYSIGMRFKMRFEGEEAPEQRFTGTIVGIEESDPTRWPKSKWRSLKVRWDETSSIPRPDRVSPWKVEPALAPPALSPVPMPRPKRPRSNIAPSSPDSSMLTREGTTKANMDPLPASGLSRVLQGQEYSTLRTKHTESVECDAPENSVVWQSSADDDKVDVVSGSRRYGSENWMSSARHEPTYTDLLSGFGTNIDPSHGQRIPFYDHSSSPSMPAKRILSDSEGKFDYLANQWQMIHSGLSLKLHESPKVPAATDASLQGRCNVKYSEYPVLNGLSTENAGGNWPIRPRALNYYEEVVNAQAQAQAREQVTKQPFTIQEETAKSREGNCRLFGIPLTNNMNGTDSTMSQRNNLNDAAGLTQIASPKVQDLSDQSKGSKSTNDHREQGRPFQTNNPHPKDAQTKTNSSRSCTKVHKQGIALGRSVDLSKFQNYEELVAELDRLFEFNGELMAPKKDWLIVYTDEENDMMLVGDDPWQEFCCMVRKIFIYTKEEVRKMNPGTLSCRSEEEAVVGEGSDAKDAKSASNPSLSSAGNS
Substance,tested on,test,system,conditions,how to read,quantity,result
"CCTCTTCCCTCACCTCTTCTTGACCTCATTCGTACCCATTGACCTTCGCAACCACCTGCGAAGGTCAATGGGTACGAATGAGGT (hairpin DNA; hairpin, 5' overhang, 3' ddT)",polA D424A,SPR,,with: dATP 100 µM,,Kd,3.5 ± 1.1 nM
B1 (FNO G29S),NC(=O)C[n+]1cccc(C(N)=O)c1,steady-state kinetics,,"pH 8, 25 °C, with: F420H2 40 µM",,kcat,0.16 ± 0.00933 s⁻¹
B2 (enzyme),CC[C@H](O)[C@H](C)/C=C/C(=O)[C@H](C)C[C@H](C)[C@H](OC)[C@@H](C)C(=O)SCCNC(C)=O,steady-state kinetics,,,,kcat,0.143 ± 0.007 s⁻¹
AGTCTTTTTGGTCTCTGGTCGGTCGACAATCCGTGTG (dsDNA; 5-C6-amino-dT labels),"ARF2 1-859 (Arabidopsis thaliana, UniProt Q94JM3)",smFRET titration,"double-stranded DNA, one strand shown",,,K1/2,45.2 nM
"CCTCTTCCCTCACCTCTTCTTGACCTCATTCGTACCCATTGACCTTCGCAACCACCTGCGAAGGTCAATGGGTACGAATGAGGT (hairpin DNA; hairpin, 5' overhang, dG-C8-FABP 22, 3' ddT)",polA D424A,SPR,,with: dATP 100 µM,,Kd,0.44 ± 0.01 nM
"CYP2C19 (Homo sapiens, UniProt P33261)",CC(C)(C)NC(CO)c1cc(Cl)c(N)c(C(F)(F)F)c1,steady-state kinetics,,"pH 7.4, 37 °C, not purified",,kcat,0.00105 ± 4.43e-05 s⁻¹
"GACAUGGUCCGGUAGUUCAGUUGGUUAGAAUGCCUGCCUGUCACGCAGGAGGUCGCGGGUUCGAGUCCCGUCCGGACCG (tRNA (Bacillus subtilis); 5'-GMPS, tRNA fold)","PRORP1 77-572 N136A (Arabidopsis thaliana, UniProt Q66GI4)",fluorescence anisotropy,folded RNA,NaCl 330 mM,"relative to: wild-type target, higher = weaker binding",relative affinity,6.3 fold
B3 (genB3 Q310N),CN[C@@H]1[C@@H](O)[C@@H](O[C@@H]2[C@@H](O)[C@H](O[C@H]3O[C@H](CN)[C@@H](O)[C@H](OP(=O)(O)O)[C@H]3N)[C@@H](N)C[C@H]2N)OC[C@]1(C)O,steady-state kinetics,,30 °C,,kcat,0.0258 ± 0.000667 s⁻¹
B4 (enzyme),CC(C)(O)[C@@H]1CC[C@](C)([C@H]2[C@@H](O)C[C@@]3(C)[C@@H]4C[C@H](O[C@@H]5O[C@H](CO)[C@@H](O)[C@H](O)[C@H]5O)[C@H]5C(C)(C)[C@@H](O)CC[C@@]56C[C@@]46CC[C@]23C)O1,steady-state kinetics,,,,kcat,0.0003 s⁻¹
B5 (PPIP5K2),O=P(O)(O)O[C@H]1[C@@H](OP(=O)(O)O)[C@H](OP(=O)(O)O)[C@@H](OP(=O)(O)OP(=O)(O)O)[C@H](OP(=O)(O)O)[C@H]1OP(=O)(O)O,steady-state kinetics,,,,kcat,0.13 ± 0.01 s⁻¹
B6 (protein),N[C@@H](Cc1ccc(O)c(Br)c1)C(=O)O,steady-state kinetics,,"pH 7.4, 60 °C",,kcat,0.085 ± 0.005 s⁻¹
enzyme (UniProt A0A1I5R890),Cn1cncc1C[C@H](N)C(=O)O,steady-state kinetics,,,,kcat,2.19 ± 0.045 s⁻¹

# Excerpt of the above:
Substance,tested on,test,system,conditions,how to read,quantity,result
"CYP2C19 (Homo sapiens, UniProt P33261)",CC(C)(C)NC(CO)c1cc(Cl)c(N)c(C(F)(F)F)c1,steady-state kinetics,,"pH 7.4, 37 °C, not purified",,kcat,0.00105 ± 4.43e-05 s⁻¹
"GACAUGGUCCGGUAGUUCAGUUGGUUAGAAUGCCUGCCUGUCACGCAGGAGGUCGCGGGUUCGAGUCCCGUCCGGACCG (tRNA (Bacillus subtilis); 5'-GMPS, tRNA fold)","PRORP1 77-572 N136A (Arabidopsis thaliana, UniProt Q66GI4)",fluorescence anisotropy,folded RNA,NaCl 330 mM,"relative to: wild-type target, higher = weaker binding",relative affinity,6.3 fold
